Assay results gathered from unrelated publications.
Numbered parts are unrelated; each lists some results of a single study. pIC50: −log10 of the molar value.
UniProt Q99759, sequence (whole entry, looked up): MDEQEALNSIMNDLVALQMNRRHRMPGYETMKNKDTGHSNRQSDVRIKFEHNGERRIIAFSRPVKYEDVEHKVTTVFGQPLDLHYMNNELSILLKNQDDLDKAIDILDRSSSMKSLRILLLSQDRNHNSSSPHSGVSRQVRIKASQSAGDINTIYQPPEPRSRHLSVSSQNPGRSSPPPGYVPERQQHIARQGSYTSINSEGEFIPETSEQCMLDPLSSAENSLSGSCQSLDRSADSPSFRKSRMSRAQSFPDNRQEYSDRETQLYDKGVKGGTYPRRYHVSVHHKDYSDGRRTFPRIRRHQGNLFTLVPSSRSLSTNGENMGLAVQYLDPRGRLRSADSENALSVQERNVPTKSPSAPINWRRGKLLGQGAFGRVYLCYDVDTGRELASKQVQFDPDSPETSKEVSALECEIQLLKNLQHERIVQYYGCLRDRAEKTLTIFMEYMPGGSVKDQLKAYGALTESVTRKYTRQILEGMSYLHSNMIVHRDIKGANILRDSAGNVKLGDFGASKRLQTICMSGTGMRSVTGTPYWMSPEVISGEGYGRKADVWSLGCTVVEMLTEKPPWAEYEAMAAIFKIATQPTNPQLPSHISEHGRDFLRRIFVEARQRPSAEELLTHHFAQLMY
UniProt O00421, sequence (whole entry, looked up): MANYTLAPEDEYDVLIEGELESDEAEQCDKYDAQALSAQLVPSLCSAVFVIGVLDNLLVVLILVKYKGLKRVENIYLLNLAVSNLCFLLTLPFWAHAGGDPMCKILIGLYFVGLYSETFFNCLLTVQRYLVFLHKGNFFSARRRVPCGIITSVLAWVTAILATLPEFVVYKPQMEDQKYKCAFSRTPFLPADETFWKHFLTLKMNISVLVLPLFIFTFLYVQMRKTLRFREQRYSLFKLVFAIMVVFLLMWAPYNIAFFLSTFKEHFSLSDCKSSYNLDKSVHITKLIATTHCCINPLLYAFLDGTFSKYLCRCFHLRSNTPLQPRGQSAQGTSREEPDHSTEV
UniProt Q9H422, sequence (whole entry, looked up): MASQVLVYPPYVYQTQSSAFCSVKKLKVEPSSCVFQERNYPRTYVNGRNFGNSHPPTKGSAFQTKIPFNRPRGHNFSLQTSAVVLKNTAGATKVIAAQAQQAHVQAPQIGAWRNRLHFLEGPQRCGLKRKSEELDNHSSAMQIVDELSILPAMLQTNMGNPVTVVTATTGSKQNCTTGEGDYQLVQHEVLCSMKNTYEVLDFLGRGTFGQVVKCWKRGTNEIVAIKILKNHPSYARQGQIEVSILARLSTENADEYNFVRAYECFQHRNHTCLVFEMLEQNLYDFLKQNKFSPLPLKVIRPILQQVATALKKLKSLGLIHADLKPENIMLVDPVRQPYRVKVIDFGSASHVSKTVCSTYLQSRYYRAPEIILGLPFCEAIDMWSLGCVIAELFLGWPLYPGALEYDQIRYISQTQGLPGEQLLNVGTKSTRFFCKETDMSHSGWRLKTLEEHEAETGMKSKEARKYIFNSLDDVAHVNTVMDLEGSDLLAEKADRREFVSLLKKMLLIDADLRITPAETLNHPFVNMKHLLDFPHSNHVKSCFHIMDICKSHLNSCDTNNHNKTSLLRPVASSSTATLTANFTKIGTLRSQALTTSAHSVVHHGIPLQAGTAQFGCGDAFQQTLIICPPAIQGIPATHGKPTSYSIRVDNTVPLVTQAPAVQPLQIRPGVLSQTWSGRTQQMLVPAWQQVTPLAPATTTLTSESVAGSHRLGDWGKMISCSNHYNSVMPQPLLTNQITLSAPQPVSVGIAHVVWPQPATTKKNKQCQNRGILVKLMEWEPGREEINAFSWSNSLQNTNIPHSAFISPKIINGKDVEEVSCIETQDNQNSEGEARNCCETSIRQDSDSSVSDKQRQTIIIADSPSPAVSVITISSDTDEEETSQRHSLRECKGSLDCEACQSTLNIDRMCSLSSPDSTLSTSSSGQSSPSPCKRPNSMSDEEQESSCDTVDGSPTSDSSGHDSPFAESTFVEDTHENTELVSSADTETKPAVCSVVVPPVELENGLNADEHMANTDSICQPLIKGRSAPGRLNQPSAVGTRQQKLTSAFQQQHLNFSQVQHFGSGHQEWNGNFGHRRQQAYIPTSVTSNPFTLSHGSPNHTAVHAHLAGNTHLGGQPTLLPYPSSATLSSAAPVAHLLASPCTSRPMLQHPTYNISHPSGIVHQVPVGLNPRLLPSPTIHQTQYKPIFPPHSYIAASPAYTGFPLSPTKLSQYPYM
UniProt Q9H244, sequence (whole entry, looked up): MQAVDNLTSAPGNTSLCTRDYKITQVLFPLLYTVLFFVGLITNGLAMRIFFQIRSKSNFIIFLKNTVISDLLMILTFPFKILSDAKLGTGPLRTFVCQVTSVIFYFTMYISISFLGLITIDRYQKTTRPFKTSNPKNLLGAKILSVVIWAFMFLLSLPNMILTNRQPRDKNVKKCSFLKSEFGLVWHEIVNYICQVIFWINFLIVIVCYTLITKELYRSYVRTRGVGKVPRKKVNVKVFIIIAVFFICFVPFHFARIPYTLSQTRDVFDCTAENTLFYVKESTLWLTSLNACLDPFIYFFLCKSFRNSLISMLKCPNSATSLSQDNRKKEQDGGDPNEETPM
UniProt O60331, sequence (whole entry, looked up): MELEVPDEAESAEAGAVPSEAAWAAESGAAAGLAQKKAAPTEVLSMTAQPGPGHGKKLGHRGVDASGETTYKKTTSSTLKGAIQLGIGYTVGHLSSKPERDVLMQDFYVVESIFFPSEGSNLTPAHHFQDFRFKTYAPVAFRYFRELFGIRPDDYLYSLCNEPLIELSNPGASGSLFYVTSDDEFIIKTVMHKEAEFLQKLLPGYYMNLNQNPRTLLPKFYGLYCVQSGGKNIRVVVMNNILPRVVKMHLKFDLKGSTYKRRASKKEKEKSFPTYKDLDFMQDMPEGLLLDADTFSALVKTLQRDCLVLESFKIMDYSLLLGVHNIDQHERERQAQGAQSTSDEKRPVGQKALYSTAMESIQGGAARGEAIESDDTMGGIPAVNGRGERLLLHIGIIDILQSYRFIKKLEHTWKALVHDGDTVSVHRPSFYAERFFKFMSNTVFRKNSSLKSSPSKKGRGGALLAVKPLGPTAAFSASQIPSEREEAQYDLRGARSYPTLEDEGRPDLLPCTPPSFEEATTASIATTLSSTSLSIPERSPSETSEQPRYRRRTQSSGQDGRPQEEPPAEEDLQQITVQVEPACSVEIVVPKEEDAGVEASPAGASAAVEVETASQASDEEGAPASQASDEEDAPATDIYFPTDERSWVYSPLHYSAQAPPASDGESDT
UniProt P53778, sequence (whole entry, looked up): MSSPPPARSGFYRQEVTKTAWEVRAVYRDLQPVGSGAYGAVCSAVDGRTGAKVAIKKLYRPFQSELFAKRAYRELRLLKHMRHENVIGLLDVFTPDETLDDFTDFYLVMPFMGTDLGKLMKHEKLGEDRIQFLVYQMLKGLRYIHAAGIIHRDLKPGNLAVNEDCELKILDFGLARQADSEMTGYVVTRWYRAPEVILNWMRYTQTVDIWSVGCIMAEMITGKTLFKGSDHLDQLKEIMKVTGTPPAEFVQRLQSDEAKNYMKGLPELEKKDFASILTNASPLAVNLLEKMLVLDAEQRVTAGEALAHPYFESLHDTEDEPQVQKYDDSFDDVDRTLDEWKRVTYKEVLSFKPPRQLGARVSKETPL
UniProt P68400, sequence (whole entry, looked up): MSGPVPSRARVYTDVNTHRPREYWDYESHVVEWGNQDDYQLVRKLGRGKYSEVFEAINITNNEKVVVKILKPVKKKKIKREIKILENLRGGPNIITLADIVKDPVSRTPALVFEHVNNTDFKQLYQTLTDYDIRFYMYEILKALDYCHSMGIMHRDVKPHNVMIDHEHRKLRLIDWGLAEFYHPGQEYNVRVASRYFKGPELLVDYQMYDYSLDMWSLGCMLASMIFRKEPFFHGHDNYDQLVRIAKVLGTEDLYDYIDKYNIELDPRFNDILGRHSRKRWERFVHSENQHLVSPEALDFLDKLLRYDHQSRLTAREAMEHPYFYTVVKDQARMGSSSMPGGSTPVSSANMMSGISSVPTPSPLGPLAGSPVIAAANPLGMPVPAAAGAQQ

Sample 1
Structure (SMILES): C=CCc1ccc(O)c(-c2cc(CC=C)ccc2O)c1
Observed: chloride current
Method: whole-cell voltage clamp
ANO1 del476-501/R561A: Anoctamin-1 (ANO1, Homo sapiens, UniProt Q5XXA6, del476-501/R561A)
UniProt Q5XXA6, sequence (whole entry, unmodified, looked up): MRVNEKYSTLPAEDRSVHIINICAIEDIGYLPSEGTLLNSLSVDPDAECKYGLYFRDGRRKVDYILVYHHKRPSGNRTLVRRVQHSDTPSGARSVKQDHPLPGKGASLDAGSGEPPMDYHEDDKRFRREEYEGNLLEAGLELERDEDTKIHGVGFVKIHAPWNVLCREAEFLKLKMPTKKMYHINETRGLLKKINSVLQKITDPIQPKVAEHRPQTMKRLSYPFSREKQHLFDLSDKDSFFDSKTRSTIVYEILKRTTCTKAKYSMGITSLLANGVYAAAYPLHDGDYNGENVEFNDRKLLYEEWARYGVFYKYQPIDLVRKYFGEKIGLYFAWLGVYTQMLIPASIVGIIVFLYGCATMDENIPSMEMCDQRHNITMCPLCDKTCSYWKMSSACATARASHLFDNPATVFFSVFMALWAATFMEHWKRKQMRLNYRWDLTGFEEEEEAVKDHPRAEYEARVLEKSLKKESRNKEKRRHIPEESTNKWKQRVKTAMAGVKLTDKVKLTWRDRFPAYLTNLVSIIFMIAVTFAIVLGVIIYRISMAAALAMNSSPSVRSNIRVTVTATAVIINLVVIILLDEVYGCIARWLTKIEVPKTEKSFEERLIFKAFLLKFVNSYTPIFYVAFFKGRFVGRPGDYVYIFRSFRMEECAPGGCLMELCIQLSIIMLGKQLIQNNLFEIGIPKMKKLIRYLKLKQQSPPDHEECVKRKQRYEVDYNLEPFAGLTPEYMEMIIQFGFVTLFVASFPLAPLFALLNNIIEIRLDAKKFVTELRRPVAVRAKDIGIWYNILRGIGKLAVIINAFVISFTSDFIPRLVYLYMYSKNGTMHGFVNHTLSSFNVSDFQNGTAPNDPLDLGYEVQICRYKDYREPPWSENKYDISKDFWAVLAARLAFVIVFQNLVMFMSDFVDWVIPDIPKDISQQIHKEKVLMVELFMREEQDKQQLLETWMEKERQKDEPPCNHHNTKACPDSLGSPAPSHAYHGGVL
For Anoctamin-1 (ANO1, Homo sapiens, UniProt Q5XXA6, del476-501/R541D); inhibitor; R515D mutant at 40 mV: pIC50 read 3.88.
Anoctamin-1 (ANO1, Homo sapiens, UniProt Q5XXA6, del476-501/K629R); inhibitor; 40 mV holding voltage — pIC50: 3.66.
Anoctamin-1 (ANO1, Homo sapiens, UniProt Q5XXA6, del476-501/E649D); inhibitor; E623D mutant at 80 mV — pIC50: 4.31.
It gave 4.57 for pIC50 (ANO1 del476-501/R561A; membrane voltage -40 mV).
It gave 4.37 for pIC50 (Anoctamin-1 (ANO1, Homo sapiens, UniProt Q5XXA6, del476-501/R541I); inhibitor; R515I mutant at -20 mV).
For ANO1 del476-501/R561A; membrane voltage -60 mV: pIC50 read 4.48.
It gave 4.08 for pIC50 (Anoctamin-1 (ANO1, Homo sapiens, UniProt Q5XXA6, del476-501/M544A); membrane voltage 60 mV).
The pIC50 was 4.69 (Anoctamin-1 (ANO1, Homo sapiens, UniProt Q5XXA6, del476-501/F627A); membrane voltage -40 mV).
Anoctamin-1 (ANO1, Homo sapiens, UniProt Q5XXA6, del476-501/M544T); inhibitor; 60 mV holding voltage — pIC50: 4.59.
For Anoctamin-1 (ANO1, Homo sapiens, UniProt Q5XXA6, del476-501/R541K); inhibitor; R515K mutant at -20 mV: pIC50 read 4.79.
For ANO1 del476-501/R561A; membrane voltage -20 mV: pIC50 read 4.63.
For Anoctamin-1 (ANO1, Homo sapiens, UniProt Q5XXA6, del476-501/K629D); inhibitor; 40 mV holding voltage: pIC50 read 3.66.
It gave 4.43 for pIC50 (Anoctamin-1 (ANO1, Homo sapiens, UniProt Q5XXA6, D383A/del476-501); membrane voltage 100 mV).
Anoctamin-1 (ANO1, Homo sapiens, UniProt Q5XXA6, del476-501/K629I); inhibitor; 40 mV holding voltage — pIC50: 3.63.

Sample 2
Compound: NC(N)=NC(=O)c1nc(Cl)c(N2CCCCCC2)nc1N
Observed: β-arrestin recruitment
Mode: agonist
Method: PRESTO-Tango
Concentration: 10 µM
Reference: untreated
For P2Y purinoceptor 12 (P2RY12, Homo sapiens, UniProt Q9H244): “fold over basal” read 0.74.
It gave 0.95 for “fold over basal” (G-protein coupled receptor 161 (GPR161, Homo sapiens, UniProt Q8N6U8)).
For Somatostatin receptor type 3 (SSTR3, Homo sapiens, UniProt P32745): “fold over basal” read 1.19 fold.
C-C chemokine receptor-like 2 (Homo sapiens, UniProt O00421) — “fold over basal”: 0.96.
C-X-C chemokine receptor type 6 (CXCR6, Homo sapiens, UniProt O00574) — “fold over basal”: 0.61.
It gave 1.05 for “fold over basal” (P2Y purinoceptor 13 (P2RY13, Homo sapiens, UniProt Q9BPV8)).

Sample 3
Compound: CCCOc1ccc([C@@H]2[C@@H](C(=O)O)[C@H](c3ccc4c(c3)OCO4)CN2CC(=O)Nc2c(CC)cccc2CC)cc1
Observed: cell-free assay
Method: competition with immobilised ligand
Concentration: 1 µM
Serine/threonine-protein kinase/endoribonuclease IRE1 (ERN1, Homo sapiens, UniProt O75460) — remaining binding: 90%.
For Macrophage colony-stimulating factor 1 receptor (CSF1R, Homo sapiens, UniProt P07333): remaining binding read 100%.
For Mitogen-activated protein kinase 12 (MAPK12, Homo sapiens, UniProt P53778): remaining binding read 100%.
The remaining binding was 93% (Serine/threonine-protein kinase MAK (MAK, Homo sapiens, UniProt P20794)).
The remaining binding was 57% (Serine/threonine-protein kinase LATS1 (LATS1, Homo sapiens, UniProt O95835)).
The remaining binding was 85% (Homeodomain-interacting protein kinase 3 (HIPK3, Homo sapiens, UniProt Q9H422)).
The remaining binding was 85% (Mitogen-activated protein kinase kinase kinase 3 (MAP3K3, Homo sapiens, UniProt Q99759)).
For Epidermal growth factor receptor (EGFR, Homo sapiens, UniProt P00533, del747-750/T751S): remaining binding read 100%.
It gave 97% for remaining binding (Muscle, skeletal receptor tyrosine-protein kinase (MUSK, Homo sapiens, UniProt O15146)).
For Phosphatidylinositol 4,5-bisphosphate 3-kinase catalytic subunit alpha isoform (PIK3CA, Homo sapiens, UniProt P42336): remaining binding read 84%.
The remaining binding was 100% (Casein kinase II subunit alpha (CSNK2A1, Homo sapiens, UniProt P68400)).
The remaining binding was 90% (Activin receptor type-1B (ACVR1B, Homo sapiens, UniProt P36896)).
The remaining binding was 100% (Cyclin-dependent kinase 5 (CDK5, Homo sapiens, UniProt Q00535)).
It gave 100% for remaining binding (Phosphatidylinositol 4-phosphate 5-kinase type-1 gamma (PIP5K1C, Homo sapiens, UniProt O60331)).
For Cyclin-dependent kinase 15 (CDK15, Homo sapiens, UniProt Q96Q40): remaining binding read 93%.

Sample 4
Sample: 1,9-decadiene/PBS
pH: 7.4
`CC(C)C[C@@H]1NC(=O)[C@H](CC(C)C)NC(=O)[C@@H](C(C)C)NC(=O)[C@H](Cc2cscn2)NC(=O)[C@@H](Cc2cscn2)NC(=O)[C@H](Cc2cscn2)NC(=O)[C@H](CCC(=O)N2CCCC2)NC1=O` gave a logD of -3.32.
`CC(C)C[C@@H]1NC(=O)[C@H](C)NC(=O)[C@@H](CC(C)C)NC(=O)[C@H](CC(C)C)NC(=O)[C@@H](Cc2cscn2)NC(=O)[C@H](CC(C)C)NC(=O)[C@@H](CC(C)C)NC1=O` gave a logD of -1.37.
With `CC(C)C[C@@H]1NC(=O)[C@H](CC(C)C)NC(=O)[C@@H](CC(C)C)NC(=O)[C@H](CC(C)C)NC(=O)[C@@H](Cc2cscn2)NC(=O)[C@H](C)NC(=O)[C@H](CCC(=O)N2CCCC2)NC1=O` the logD was -1.41.
The logD of `CC(C)C[C@@H]1NC(=O)[C@H](CCC(=O)N2CCCC2)NC(=O)[C@@H](C(C)C)NC(=O)[C@H](C(C)C)NC(=O)[C@H](CC(C)C)NC(=O)[C@@H](CC(C)C)NC(=O)[C@H](CC(C)C)NC1=O` is reported as 0.354.
With `CC(C)C[C@@H]1NC(=O)[C@H](CC(C)C)NC(=O)[C@H](CC(C)C)NC(=O)[C@@H](C)NC(=O)[C@H](C(C)C)NC(=O)[C@H](C)NC(=O)[C@H](C)NC1=O` the logD was -2.42.
`CC(C)C[C@@H]1NC(=O)[C@H](C)NC(=O)[C@H](Cc2cscn2)NC(=O)[C@@H](CC(C)C)NC(=O)[C@@H](CCC(=O)N2CCCC2)NC(=O)[C@H](CC(C)C)NC(=O)[C@@H](CC(C)C)NC1=O` has a logD of -1.2.
`CC(C)C[C@@H]1NC(=O)[C@H](C(C)C)NC(=O)[C@H](Cc2cscn2)NC(=O)[C@@H](CC(C)C)NC(=O)[C@H](C(C)C)NC(=O)[C@H](CC(C)C)NC(=O)[C@@H](CC(C)C)NC1=O` has a logD of 0.575.
`CC(C)C[C@@H]1NC(=O)[C@H](CC(C)C)NC(=O)[C@@H](C(C)C)NC(=O)[C@H](C(C)C)NC(=O)[C@H](C)NC(=O)[C@@H](CC(C)C)NC(=O)[C@H](C)NC1=O` gave a logD of -1.06.
`CC(C)C[C@@H]1NC(=O)[C@H](C(C)C)NC(=O)[C@H](C)NC(=O)[C@@H](CC(C)C)NC(=O)[C@@H](CCC(=O)N2CCCC2)NC(=O)[C@H](CC(C)C)NC(=O)[C@@H](CC(C)C)NC1=O` has a logD of -0.955.

Excerpt of the above (sample 4):
With `CC(C)C[C@@H]1NC(=O)[C@H](CC(C)C)NC(=O)[C@@H](CC(C)C)NC(=O)[C@H](CC(C)C)NC(=O)[C@@H](Cc2cscn2)NC(=O)[C@H](C)NC(=O)[C@H](CCC(=O)N2CCCC2)NC1=O` the logD was -1.41.
The logD of `CC(C)C[C@@H]1NC(=O)[C@H](CCC(=O)N2CCCC2)NC(=O)[C@@H](C(C)C)NC(=O)[C@H](C(C)C)NC(=O)[C@H](CC(C)C)NC(=O)[C@@H](CC(C)C)NC(=O)[C@H](CC(C)C)NC1=O` is reported as 0.354.
With `CC(C)C[C@@H]1NC(=O)[C@H](CC(C)C)NC(=O)[C@H](CC(C)C)NC(=O)[C@@H](C)NC(=O)[C@H](C(C)C)NC(=O)[C@H](C)NC(=O)[C@H](C)NC1=O` the logD was -2.42.
`CC(C)C[C@@H]1NC(=O)[C@H](C)NC(=O)[C@H](Cc2cscn2)NC(=O)[C@@H](CC(C)C)NC(=O)[C@@H](CCC(=O)N2CCCC2)NC(=O)[C@H](CC(C)C)NC(=O)[C@@H](CC(C)C)NC1=O` has a logD of -1.2.
`CC(C)C[C@@H]1NC(=O)[C@H](C(C)C)NC(=O)[C@H](Cc2cscn2)NC(=O)[C@@H](CC(C)C)NC(=O)[C@H](C(C)C)NC(=O)[C@H](CC(C)C)NC(=O)[C@@H](CC(C)C)NC1=O` has a logD of 0.575.
`CC(C)C[C@@H]1NC(=O)[C@H](CC(C)C)NC(=O)[C@@H](C(C)C)NC(=O)[C@H](C(C)C)NC(=O)[C@H](C)NC(=O)[C@@H](CC(C)C)NC(=O)[C@H](C)NC1=O` gave a logD of -1.06.
